Measured values of several laboratories.
Every numbered part comes from another study and shows a few of its results, in no order. Several values in a cell are separate wells, animals, samples, runs or records.
Chain of UniProt Q9Y5S2 (whole entry, looked up): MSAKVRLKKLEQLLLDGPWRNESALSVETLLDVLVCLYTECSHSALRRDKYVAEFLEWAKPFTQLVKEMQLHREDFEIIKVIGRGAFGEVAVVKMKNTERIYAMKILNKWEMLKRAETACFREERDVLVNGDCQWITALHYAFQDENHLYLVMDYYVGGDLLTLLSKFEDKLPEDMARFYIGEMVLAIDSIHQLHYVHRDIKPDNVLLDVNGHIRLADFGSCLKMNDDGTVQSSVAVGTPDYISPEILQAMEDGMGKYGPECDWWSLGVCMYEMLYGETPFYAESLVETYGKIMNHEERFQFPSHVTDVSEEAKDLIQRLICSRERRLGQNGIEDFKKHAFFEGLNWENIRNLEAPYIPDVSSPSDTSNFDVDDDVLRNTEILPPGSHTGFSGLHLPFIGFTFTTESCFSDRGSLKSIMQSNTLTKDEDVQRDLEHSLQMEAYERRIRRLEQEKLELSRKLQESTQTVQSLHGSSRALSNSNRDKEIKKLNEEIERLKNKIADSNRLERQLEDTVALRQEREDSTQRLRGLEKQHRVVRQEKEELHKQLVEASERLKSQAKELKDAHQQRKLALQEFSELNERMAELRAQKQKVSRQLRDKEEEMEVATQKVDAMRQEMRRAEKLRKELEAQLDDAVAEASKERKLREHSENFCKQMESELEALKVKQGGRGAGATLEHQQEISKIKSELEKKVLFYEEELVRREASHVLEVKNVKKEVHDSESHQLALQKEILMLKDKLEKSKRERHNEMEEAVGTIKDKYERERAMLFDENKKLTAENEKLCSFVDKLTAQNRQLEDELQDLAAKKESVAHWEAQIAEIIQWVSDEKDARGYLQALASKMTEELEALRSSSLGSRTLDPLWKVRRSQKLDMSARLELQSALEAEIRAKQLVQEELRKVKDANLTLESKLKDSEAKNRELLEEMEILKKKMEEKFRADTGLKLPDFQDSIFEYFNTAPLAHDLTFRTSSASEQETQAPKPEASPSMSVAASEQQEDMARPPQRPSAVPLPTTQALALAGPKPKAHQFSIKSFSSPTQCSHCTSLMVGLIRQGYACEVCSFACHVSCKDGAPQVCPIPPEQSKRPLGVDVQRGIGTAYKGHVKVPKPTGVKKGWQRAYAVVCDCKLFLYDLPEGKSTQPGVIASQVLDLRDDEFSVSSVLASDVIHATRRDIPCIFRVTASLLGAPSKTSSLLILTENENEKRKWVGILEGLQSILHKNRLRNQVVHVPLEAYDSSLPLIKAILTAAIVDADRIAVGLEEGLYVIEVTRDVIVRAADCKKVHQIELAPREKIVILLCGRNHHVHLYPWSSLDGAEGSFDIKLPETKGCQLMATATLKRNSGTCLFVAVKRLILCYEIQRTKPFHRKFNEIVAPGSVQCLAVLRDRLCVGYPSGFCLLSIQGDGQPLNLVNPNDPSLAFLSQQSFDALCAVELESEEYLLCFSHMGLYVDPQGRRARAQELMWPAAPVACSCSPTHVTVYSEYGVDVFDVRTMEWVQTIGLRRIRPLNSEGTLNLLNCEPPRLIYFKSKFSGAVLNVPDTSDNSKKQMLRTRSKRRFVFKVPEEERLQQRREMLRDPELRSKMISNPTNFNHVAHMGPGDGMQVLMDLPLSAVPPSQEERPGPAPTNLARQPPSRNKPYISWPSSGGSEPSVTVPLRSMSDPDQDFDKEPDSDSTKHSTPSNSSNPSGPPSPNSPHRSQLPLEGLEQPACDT
Chain of UniProt Q96PF2 (whole entry, looked up): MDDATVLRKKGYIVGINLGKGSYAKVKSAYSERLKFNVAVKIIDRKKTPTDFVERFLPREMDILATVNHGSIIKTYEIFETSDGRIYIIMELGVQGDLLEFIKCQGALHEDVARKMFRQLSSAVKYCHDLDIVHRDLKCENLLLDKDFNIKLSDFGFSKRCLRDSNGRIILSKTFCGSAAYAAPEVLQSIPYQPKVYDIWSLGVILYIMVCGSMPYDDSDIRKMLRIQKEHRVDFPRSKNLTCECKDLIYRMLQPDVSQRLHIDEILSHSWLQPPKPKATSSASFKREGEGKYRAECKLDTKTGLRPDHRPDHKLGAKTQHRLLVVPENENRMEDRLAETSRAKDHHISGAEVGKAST
Chain of UniProt P41145 (whole entry, looked up): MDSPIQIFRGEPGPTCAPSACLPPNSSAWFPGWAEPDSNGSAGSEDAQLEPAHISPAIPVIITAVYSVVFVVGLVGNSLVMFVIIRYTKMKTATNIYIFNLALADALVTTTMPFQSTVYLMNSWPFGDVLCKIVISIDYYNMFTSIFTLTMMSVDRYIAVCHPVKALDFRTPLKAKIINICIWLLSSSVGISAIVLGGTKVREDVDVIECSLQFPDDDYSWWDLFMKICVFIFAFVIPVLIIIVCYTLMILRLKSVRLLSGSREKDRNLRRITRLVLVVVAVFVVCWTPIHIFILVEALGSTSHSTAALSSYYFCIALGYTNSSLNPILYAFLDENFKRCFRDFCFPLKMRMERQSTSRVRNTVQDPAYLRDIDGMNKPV
Chain of UniProt P35372 (whole entry, looked up): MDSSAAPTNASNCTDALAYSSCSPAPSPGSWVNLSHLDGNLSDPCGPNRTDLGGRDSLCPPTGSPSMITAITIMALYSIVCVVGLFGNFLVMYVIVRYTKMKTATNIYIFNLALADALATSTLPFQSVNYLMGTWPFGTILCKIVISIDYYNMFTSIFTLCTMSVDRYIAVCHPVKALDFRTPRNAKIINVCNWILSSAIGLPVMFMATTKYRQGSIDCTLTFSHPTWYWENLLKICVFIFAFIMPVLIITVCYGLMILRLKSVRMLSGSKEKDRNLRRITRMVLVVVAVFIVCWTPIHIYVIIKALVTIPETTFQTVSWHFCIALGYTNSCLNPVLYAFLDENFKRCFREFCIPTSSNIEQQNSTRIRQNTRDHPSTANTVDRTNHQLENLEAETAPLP
Chain of UniProt Q01959 (whole entry, looked up): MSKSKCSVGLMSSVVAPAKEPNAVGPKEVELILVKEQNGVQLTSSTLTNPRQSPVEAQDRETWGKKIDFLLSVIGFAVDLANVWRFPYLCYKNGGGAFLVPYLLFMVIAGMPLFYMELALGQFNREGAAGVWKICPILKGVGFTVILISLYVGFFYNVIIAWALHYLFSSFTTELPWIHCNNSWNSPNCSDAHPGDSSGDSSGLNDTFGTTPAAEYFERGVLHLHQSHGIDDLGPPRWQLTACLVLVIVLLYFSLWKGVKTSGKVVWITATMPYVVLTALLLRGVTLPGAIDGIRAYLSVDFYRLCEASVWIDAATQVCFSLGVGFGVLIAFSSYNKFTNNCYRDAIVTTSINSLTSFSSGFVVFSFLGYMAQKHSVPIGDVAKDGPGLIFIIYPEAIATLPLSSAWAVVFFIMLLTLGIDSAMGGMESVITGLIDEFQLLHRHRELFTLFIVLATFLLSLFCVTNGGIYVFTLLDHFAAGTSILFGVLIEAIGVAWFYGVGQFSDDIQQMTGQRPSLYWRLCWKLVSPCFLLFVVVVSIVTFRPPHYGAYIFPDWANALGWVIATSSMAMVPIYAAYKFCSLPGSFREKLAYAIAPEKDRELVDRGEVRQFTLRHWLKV
Chain of UniProt P21918 (whole entry, looked up): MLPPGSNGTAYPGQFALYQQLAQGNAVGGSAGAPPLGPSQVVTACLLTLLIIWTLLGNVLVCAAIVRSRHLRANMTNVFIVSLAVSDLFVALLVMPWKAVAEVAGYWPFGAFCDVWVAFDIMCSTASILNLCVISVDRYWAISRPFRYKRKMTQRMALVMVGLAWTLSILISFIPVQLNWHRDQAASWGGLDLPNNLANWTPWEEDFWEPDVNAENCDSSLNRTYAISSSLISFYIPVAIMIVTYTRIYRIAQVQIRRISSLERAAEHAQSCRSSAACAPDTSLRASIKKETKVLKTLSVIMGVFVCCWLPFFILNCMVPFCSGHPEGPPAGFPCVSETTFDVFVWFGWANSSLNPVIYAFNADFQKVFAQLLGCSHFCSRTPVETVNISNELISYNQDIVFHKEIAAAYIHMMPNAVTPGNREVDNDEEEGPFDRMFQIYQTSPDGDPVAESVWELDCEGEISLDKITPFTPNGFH
Chain of UniProt P20309 (whole entry, looked up): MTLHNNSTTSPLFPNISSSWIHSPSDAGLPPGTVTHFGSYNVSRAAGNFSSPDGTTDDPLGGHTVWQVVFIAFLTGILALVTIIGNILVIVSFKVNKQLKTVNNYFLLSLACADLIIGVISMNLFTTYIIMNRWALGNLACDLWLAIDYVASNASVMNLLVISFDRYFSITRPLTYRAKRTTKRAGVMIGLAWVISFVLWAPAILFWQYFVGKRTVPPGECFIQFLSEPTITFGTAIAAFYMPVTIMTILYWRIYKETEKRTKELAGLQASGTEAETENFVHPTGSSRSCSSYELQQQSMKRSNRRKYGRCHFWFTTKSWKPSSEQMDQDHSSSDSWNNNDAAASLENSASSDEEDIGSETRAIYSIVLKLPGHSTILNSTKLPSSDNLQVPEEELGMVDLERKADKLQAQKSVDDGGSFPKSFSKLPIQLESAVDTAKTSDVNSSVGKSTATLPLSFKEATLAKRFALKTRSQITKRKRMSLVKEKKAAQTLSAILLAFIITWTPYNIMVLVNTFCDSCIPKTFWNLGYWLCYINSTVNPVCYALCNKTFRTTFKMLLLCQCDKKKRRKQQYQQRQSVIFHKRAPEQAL

Study 1 — action: agonist
Target: Beta-1 adrenergic receptor (ADRB1, Homo sapiens, UniProt P08588)
Chain of UniProt P08588 (whole entry, looked up): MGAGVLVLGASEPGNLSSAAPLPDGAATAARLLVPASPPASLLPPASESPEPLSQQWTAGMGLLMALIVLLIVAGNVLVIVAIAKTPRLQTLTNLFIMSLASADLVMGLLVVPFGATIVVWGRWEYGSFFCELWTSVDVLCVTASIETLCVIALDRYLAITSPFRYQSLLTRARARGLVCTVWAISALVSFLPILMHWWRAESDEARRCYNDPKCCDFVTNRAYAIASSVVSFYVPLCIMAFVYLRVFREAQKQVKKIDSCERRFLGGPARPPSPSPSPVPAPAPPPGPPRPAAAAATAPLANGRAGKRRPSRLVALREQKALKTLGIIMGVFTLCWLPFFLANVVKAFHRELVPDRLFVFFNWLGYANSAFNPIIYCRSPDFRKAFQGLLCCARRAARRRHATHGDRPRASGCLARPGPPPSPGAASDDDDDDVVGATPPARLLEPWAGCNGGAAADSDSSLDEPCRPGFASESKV
Compound | EC50 [µM]
ClC1=C(Cl)[C@]2(Cl)[C@@H]3[C@@H]4C[C@@H]([C@H]5O[C@@H]45)[C@@H]3[C@@]1(Cl)C2(Cl)Cl | 39.8
c1cc(N2CCNCC2)c2cnccc2c1 | ≥ 100
CC(Cc1ccccc1)NCCN1CCOCC1 (stereo not drawn) | ≥ 100
CC(C)[C@H]1C(=O)N2CCC[C@H]2[C@]2(O)O[C@](NC(=O)[C@@H]3C=C4c5cccc6[nH]cc(c56)C[C@H]4N(C)C3)(C(C)C)C(=O)N12 | ≥ 100
COc1ccccc1N1CCN(Cc2ccc(C#N)cc2)CC1 | ≥ 100
COc1cc2c(cc1OCc1ccccc1)N(C(=O)c1cccc3[nH]ccc13)CC21CCN(C)CC1 | ≥ 100

Study 2 — concentration: 10 µM
Compound: CCS(=O)(=O)c1cc2cc(C[C@@](O)(CC(C)(C)c3ccc(F)cc3C(N)=O)C(F)(F)F)[nH]c2cn1
target | observed | method | inhibition [%]
Kappa-type opioid receptor (OPRK1, Homo sapiens, UniProt P41145) | binding | radioligand binding | 28.3
Mu-type opioid receptor (OPRM1, Homo sapiens, UniProt P35372) | binding | radioligand binding | 7.98
Sodium-dependent noradrenaline transporter (SLC6A2, Homo sapiens, UniProt P23975) | binding | radioligand binding | -15.5
D(1B) dopamine receptor (DRD5, Homo sapiens, UniProt P21918) | binding | radioligand binding | 32.4
Sodium-dependent serotonin transporter (SLC6A4, Homo sapiens, UniProt P31645) | binding | radioligand binding | -10.9
Muscarinic acetylcholine receptor M3 (CHRM3, Homo sapiens, UniProt P20309) | binding | radioligand binding | 1.25
Sodium-dependent dopamine transporter (SLC6A3, Homo sapiens, UniProt Q01959) | binding | radioligand binding | 2.58
5-hydroxytryptamine receptor 2A (HTR2A, Homo sapiens, UniProt P28223) | cell-free assay | – | 14.1

Study 3 — Compound: CC(C)(C)c1cc(C=C(C#N)C#N)cc(Br)c1O; observed: enzyme activity; action: inhibitor; concentration: 0.5 µM
target | remaining activity [%]
NUAK family SNF1-like kinase 2 (NUAK2, Homo sapiens, UniProt Q9H093) | 99.6
Testis-specific serine/threonine-protein kinase 2 (TSSK2, Homo sapiens, UniProt Q96PF2) | 96.6
Serine/threonine-protein kinase MRCK beta (CDC42BPB, Homo sapiens, UniProt Q9Y5S2) | 103

Study 4 — method: CCK-8
SMILES: CC(C)S(=O)(=O)c1cc2c(Nc3ccc4sc(C5CCCC5)nc4c3)ccnc2cc1OCCO
Cell line: L929 RIPK3-/- reexpressing RIPK3 K51A/R69H
concentration | with | survival
3.125 µM | – | 102% and 96.9% and 89.1% and 86.3%
50 µM | – | 28.1% and 30.1% and 29.7% and 28.6% and 31.3%
50 µM | zVAD | 25.1% and 23.4% and 27%
12.5 µM | – | 85.5% and 81.6% and 79.4% and 82.8%

Repeated from above (study 4):
concentration | with | survival
50 µM | – | 28.1% and 30.1% and 29.7% and 28.6% and 31.3%
50 µM | zVAD | 25.1% and 23.4% and 27%
12.5 µM | – | 85.5% and 81.6% and 79.4% and 82.8%
